Experimental data from different studies.
Each numbered part is a random draw from the data of one study; scales do not carry over between parts.

Study 1
Target: Sal-like protein 4, full length isoform A (SALL4, Homo sapiens, UniProt Q9UJQ4, residues 1-1053)
UniProt Q9UJQ4, sequence (whole entry, looked up): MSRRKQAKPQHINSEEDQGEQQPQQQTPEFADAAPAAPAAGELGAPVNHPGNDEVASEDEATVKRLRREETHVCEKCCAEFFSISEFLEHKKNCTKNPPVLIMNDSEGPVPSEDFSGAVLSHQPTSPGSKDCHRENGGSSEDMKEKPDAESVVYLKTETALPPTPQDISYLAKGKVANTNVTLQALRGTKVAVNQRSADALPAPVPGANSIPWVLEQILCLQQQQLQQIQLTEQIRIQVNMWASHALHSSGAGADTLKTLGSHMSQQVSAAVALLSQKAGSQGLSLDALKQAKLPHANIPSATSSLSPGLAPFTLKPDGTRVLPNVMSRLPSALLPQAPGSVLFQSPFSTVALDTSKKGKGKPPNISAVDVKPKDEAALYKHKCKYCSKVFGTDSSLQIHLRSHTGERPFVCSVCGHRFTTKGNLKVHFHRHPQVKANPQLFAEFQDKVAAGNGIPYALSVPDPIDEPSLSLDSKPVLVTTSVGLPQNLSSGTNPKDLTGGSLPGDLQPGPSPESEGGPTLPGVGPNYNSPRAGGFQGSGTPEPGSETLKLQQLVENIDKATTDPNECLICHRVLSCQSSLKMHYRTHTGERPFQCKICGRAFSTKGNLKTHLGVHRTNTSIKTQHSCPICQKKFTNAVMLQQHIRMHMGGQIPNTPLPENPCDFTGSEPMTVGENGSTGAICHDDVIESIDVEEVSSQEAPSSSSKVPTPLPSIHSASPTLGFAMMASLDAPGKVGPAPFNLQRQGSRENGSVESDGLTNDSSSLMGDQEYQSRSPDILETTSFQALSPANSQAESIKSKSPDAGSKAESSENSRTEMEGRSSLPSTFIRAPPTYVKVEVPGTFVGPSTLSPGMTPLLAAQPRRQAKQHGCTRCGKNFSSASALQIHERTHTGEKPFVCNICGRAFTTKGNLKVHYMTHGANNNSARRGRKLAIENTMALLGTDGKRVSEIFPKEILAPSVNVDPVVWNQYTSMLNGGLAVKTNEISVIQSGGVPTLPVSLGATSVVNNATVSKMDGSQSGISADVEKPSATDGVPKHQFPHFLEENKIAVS
Method: universal PBM
Molecule type: double-stranded DNA, one strand shown
Sample: in vitro
Tested at: 600 nM
Setting: 8-mer, flanks averaged, mean of replicates
Reading: higher = stronger binding
Endpoint: E-score
Strand = TAATCGCA; result = 0.183
Strand = AAACCTCG; result = -0.166
Strand = CAAGTTAA; result = 0.116
Strand = CTTGGGTC; result = -0.173
Strand = CCGTCCTA; result = -0.00294
Strand = CGTTCGTC; result = -0.0885
Strand = ACCTTGGG; result = -0.0919
Strand = AATCTGAT; result = 0.132
Strand = CCTCTCAG; result = -0.271

Study 2
Target: TAR DNA-binding protein 43, full length, His tag (TARDBP, Homo sapiens, UniProt Q13148, residues 1-414)
Method: RNA Bind-n-Seq
Molecule type: RNA
Sample: in vitro
Tested at: 20 nM
Setting: 6-mer, flanks averaged, single round
Together with: 150 mM KCl
Relative to: input library
Reading: higher = stronger binding
Endpoint: 6-mer enrichment (R)
Strand = GUUUAA; result = 0.661
Strand = GCUUGG; result = 1.51
Strand = ACAGUA; result = 0.662
Strand = AAAACU; result = 0.628
Strand = AGAGGC; result = 1.57
Strand = UAGAUC; result = 0.592
Strand = UCGCGG; result = 1.56
Strand = AAUCCU; result = 0.559

Study 3
Target: Prothrombin, mature alpha-thrombin (F2, Homo sapiens, UniProt P00734)
Method: aptamer microarray, sandwich
Molecule type: DNA with 2'F-ANA
Sample: in vitro
Tested at: 200 nM
Setting: whole 15-mer aptamer, many near background
Together with: Cy3 exosite-II aptamer, 400 nM
Reading: higher = stronger binding
Endpoint: mean fluorescence intensity
Strand: GGTTGGTGTGGTTGG
Modification = 2'F-ANA at 2 3 4 5 6 9 10 14 15; result = 47.8 a.u.
Modification = 2'F-ANA at 1 7 10 11; result = 50.9 a.u.
Modification = 2'F-ANA at 1 2 3 4 6 9 11 13 15; result = 90.4 a.u.
Modification = 2'F-ANA at 2 5 6 7 10 11 12 13; result = 55.1 a.u.
Modification = 2'F-ANA at 3 5 7 11 13 14 15; result = 55.6 a.u.
Modification = 2'F-ANA at 1 2 3 9 10 13 14; result = 97.6 a.u.
Modification = 2'F-ANA at 3 4 8 9 10 14; result = 268 a.u.
Modification = 2'F-ANA at 1 6 7 8 9 11 13 15; result = 132 a.u.
Modification = 2'F-ANA at 2 3 7 11; result = 883 a.u.

Other studies, line by line
Substance = PhoQ, residues 284 288 289 292 302 303 TLSLKA; target = PhoP, residues 12 14 15 18 19 LHHSG (Escherichia coli, UniProt P23836); assay = Sort-seq, item: YFP reporter; test system = E. coli; conditions = PhoQ-PhoP variant library, together with: 10 µM Mg2+; how to read = relative to: high Mg2+ state, higher = stronger signaling; endpoint = fold induction; result = 0.946

Some of these lines once more (study 2):
Strand = GCUUGG; result = 1.51
Strand = ACAGUA; result = 0.662
Strand = AAAACU; result = 0.628
Strand = AGAGGC; result = 1.57
Strand = UAGAUC; result = 0.592
